Results pooled from the literature.
Every numbered part comes from another study and shows a few of its results, in no order. Substitutions count along the parent as printed.

Series 1
Target: RNA binding protein fox-1 homolog 2, RRM domain, GST-SBP tag (RBFOX2, Homo sapiens, UniProt O43251-10, residues 100-194)
Technique: RNA Bind-n-Seq
Molecule type: RNA
Sample: in vitro
Tested at: 365 nM
Setting: natural RNA segment, single round, ends assumed
Relative to: no-protein control
Reading: higher = stronger binding
Residues (chain): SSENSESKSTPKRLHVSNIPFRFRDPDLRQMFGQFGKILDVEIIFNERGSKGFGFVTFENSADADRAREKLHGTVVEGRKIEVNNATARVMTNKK
For `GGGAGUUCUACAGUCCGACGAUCUCAUCUCAUAAUAGAAACACAUUCGUAUUCUAAUGAUCAAUCUAAAGUUCCCGUUGAGGAGGAGGCCCUUCAAUUGAGACUGUCCAGAGCUGUGACAAUGCACCAUAUUGUGGAAUUCUCGGGUGCCAA`, “RBNS enrichment (R)” read 0.52.
`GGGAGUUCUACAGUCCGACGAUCCGGCCCUACCAUGGCAUGCAUGGAGGUGGUCCUGGUGGUCCUGGAGGUGGCCCCCACAGCUUCCCACACCCAUUACCCAGCCUGACAGGUGGGCAUGGUGGGCAUCCCAUUGGAAUUCUCGGGUGCCAA`: “RBNS enrichment (R)” 1.87.
`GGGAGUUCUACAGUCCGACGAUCAAGCUUCAGUGACUGUCCCUUUGAAUUGCCUCCGAUUUCAAAAAUAAAUAAAUAAAUCUACACGUUUCUUUUGCUGUCUAGUGCUCACUCUUGUGAAAUGCAGAAAAAGUUGGAAUUCUCGGGUGCCAA` — result for “RBNS enrichment (R)”: 0.72.
`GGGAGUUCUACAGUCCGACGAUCCGUUCCCAAACUCCCCCAGCCCUGGACCCCAGCAGAUGAGGAAACGGCCCCAUUUACUGACCCCGCCCCCUUUUCGAGGUUAUGCUCACCUGGUCAGCUCCUCACGUAAUUGGAAUUCUCGGGUGCCAA`: “RBNS enrichment (R)” 0.397.
Under “RBNS enrichment (R)”, `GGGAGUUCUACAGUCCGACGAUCGUUAUUAGAACGAGUCUUUCUUAUAAACUAACAGAGCAGGUAUAUGCCUGUUAGACCUUAGCUGUGGGGUUCCUUUACUAUUGGGUGAAUCAUUAGGUAUAAAAAAUAAUUGGAAUUCUCGGGUGCCAA` is recorded as 0.722.
`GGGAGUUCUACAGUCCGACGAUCCUACACAUUUUGCCUUUGGGGAUCUGGUUGGGGUUUUGGGUUUUUUGUUGUUGUUGUUUAUUUGUUAUUUUAAAGGUAAAUUGCACUUUUAAAAAAAUAAUUGGUUGACUUGGAAUUCUCGGGUGCCAA`: “RBNS enrichment (R)” 0.897.
For `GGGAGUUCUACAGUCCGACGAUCUCUACAUACCUGCUGCGCAGAGACCAGCCCCGUGGACAGAGCUGGCAUGAUGGUUGCUACAGUGCUCUUUCUCCCAUGAAGUCUUUGCUUUUAUAUCAGUGCCUUAUCUGUGGAAUUCUCGGGUGCCAA`, “RBNS enrichment (R)” read 3.91.
`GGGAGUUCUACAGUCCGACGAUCUUCUCUGAAGUUGCCUAGAGCACCAUCACAGCUAGGAAGCUUCCAUCAUGAAUUACCUUAUUUCCAAAAGCAAGUACUCAAAUAAUUGUCUCAAGAGAGGAAGGACAAAAUGGAAUUCUCGGGUGCCAA` — result for “RBNS enrichment (R)”: 0.455.
`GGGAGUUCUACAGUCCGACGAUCCGAGUCUCCUAAGUCCCCGUCAGUGUGGUUUUCACCACAGGACUGUCUCUUGUCGUUUUCCCCUAAUGCCUUCUCCUGCCUUUUCUGUGCCUAGUUUUUGGCUCUUCACAUGGAAUUCUCGGGUGCCAA`: “RBNS enrichment (R)” 0.517.
Under “RBNS enrichment (R)”, `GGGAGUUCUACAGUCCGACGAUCGCACCUUGUAAUCAUCAAUACAUCCACCAAAAAUAUAUAAUGUACCAUAUAUAUUAAUAGUCAACAAAUACUCAGAUAUUCUAAGGUCAAUGCCAUUAUUUGAUUAUACCUGGAAUUCUCGGGUGCCAA` is recorded as 1.36.
`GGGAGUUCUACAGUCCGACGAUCAGUUUCUCUUUUGUGUGCUUUACCAAGUGGCCGGUGACUACAGGCCACCCCGAUUCUCACCACAAAGUUAGAAACCCUCCACUUUCUGUCCCUUGAACCAUAUCAGAAAAUGGAAUUCUCGGGUGCCAA`: “RBNS enrichment (R)” 0.252.
`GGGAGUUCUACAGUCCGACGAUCUGGGGAAGCACUGACGGCCACUCACUCACCCUGUGCUGCUGCAAGUUUGACAGAACCACAUCACAUCGUGGAGAAGCUGGUGCAGGAGUUCCUAGAGCCCCAGGGUCAACUGGAAUUCUCGGGUGCCAA` — result for “RBNS enrichment (R)”: 0.3.

Series 2
Target: Sal-like protein 4, full length isoform B (SALL4, Homo sapiens, UniProt Q9UJQ4-2, residues 1-616)
Technique: universal PBM
Molecule type: double-stranded DNA, one strand shown
Sample: in vitro
Tested at: not given
Setting: 8-mer, flanks averaged, mean of replicates
Reading: higher = stronger binding
For `AGCCGTGG`, the E-score was -0.227.
`CTCCCCAA` has an E-score of -0.208.
For `TCTGGCAA`, the E-score was -0.132.
`ACATAGGC` has an E-score of 0.148.
The E-score of `GCCATTCC` is reported as -0.237.
For `CAGCGCTG`, the E-score was -0.0855.
For `ACATTGAC`, the E-score was 0.154.
`CGGGTAGC` has an E-score of -0.229.
With `CGTCGATA` the E-score was 0.0272.
`AAATACCA` has an E-score of 0.208.
`AATCAGCA` has an E-score of 0.164.
For `TCCATTCA`, the E-score was 0.108.
For `AGTAGGAG`, the E-score was -0.219.
The E-score of `ACCCGCTG` is reported as -0.229.
With `AGAAGTAA` the E-score was 0.275.
With `AGGATGAT` the E-score was 0.0447.
For `ATCTGGAG`, the E-score was 0.0202.
For `AAAGAACG`, the E-score was 0.147.
`GAGAAGCA` has an E-score of -0.0711.
`ACGTACCA` has an E-score of 0.0208.
`AAACACAT` has an E-score of 0.24.
`TACAACTA` has an E-score of 0.0832.
For `CAGCGGAG`, the E-score was -0.311.
The E-score of `GTGGCCAC` is reported as -0.108.
`ATGGCGGA` has an E-score of -0.238.

Series 3
Target: CCNB3, cyclin fold, Cln2 fusion (human)
Technique: yeast growth competition, sequencing
Sample: yeast
Setting: weak parent motif
Relative to: not given
Reading: higher = stronger binding
Parent: FZR1 docking peptide (human); QDYERRLLRQIVI; partner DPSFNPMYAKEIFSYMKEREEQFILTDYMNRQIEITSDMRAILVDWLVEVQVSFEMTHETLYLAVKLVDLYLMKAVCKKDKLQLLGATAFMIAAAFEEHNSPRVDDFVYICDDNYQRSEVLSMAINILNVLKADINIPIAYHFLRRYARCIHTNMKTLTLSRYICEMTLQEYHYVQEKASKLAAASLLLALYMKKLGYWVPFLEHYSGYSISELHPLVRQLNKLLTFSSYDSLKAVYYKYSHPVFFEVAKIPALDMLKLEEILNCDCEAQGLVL
Under “normalised enrichment score”, `Y3A` is recorded as 0.16.
Under “normalised enrichment score”, `R5A` is recorded as 0.467.
`R5K` — result for “normalised enrichment score”: 0.179.
`R6A`: “normalised enrichment score” 0.58.
`I11A` — result for “normalised enrichment score”: 0.453.
For `Q1A`, “normalised enrichment score” read 0.436.
Under “normalised enrichment score”, `V12A` is recorded as 0.477.

Series 4
Target: ABI1, truncated, D143A, DHFR fusion (Arabidopsis thaliana)
Technique: DHFR PCA, deep sequencing
Sample: yeast
Setting: methotrexate growth selection, single substitutions
Added: (+)-ABA 0 µM
Relative to: wild-type fitted maximum
Reading: higher = stronger binding
Parent: PYL1, truncated, DHFR fusion (Arabidopsis thaliana); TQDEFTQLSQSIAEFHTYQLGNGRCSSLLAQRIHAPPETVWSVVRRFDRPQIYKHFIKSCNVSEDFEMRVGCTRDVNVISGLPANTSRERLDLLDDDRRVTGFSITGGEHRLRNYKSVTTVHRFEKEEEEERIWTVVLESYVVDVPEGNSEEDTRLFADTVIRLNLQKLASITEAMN
For `T101W`, “relative binding score” read -2.71%.
`T135Q`: “relative binding score” -11.4%.
For `N85Y`, “relative binding score” read 63.6%.
`V76N` — result for “relative binding score”: -4.39%.
`D153T` — result for “relative binding score”: -0.898%.
`I105F`: “relative binding score” -0.254%.
`V143H`: “relative binding score” -3.85%.
For `Y53G`, “relative binding score” read -0.639%.
`D159S` — result for “relative binding score”: -6.97%.
`E64R`: “relative binding score” 22.5%.
`W134N`: “relative binding score” 10.5%.
`V100D`: “relative binding score” -5.41%.
`L29A`: “relative binding score” -4.14%.
`R123P`: “relative binding score” 22.2%.
`E139T`: “relative binding score” 12.1%.
For `P37R`, “relative binding score” read 0.482%.
Under “relative binding score”, `E89G` is recorded as 2.19%.
`Q31K` — result for “relative binding score”: 13.8%.

Single results of other studies
`PhoQ, residues 284 288 289 292 302 303 NLGVHL` has a fold induction of 3.24 (PhoP, residues 12 14 15 18 19 NQFFI (Escherichia coli, UniProt P23836); Sort-seq, refers to: YFP reporter; E. coli; PhoQ-PhoP variant library, added: 10 µM Mg2+; relative to: high Mg2+ state, higher = stronger signaling).

Some of these lines once more (series 2):
The E-score of `GCCATTCC` is reported as -0.237.
For `CAGCGCTG`, the E-score was -0.0855.
For `ACATTGAC`, the E-score was 0.154.
`CGGGTAGC` has an E-score of -0.229.
With `CGTCGATA` the E-score was 0.0272.
`AAATACCA` has an E-score of 0.208.
`AATCAGCA` has an E-score of 0.164.
